{"data": "Assay results of several laboratories", "note": "Lines come from different studies, so protocols differ. ± marks the error that the study gave."}
{"Compound": "O=C([O-])CCCCCCCNC(=O)c1ccccc1O.[Na+]", "system": "human, severe hepatic impairment, plasma", "conditions": "oral, once daily, day 10, after dose 10, median", "Tmax": "0.52 h"}
{"Compound": "Cc1cnc(-c2ccnc(C(C)(C)O)n2)cc1-n1c(C)cc(OCc2ncc(F)cc2F)c(Cl)c1=O", "system": "human", "conditions": "oral, 10 to 50 mg twice daily, day 7, median across doses", "Tmax": "2 to 3 h"}
{"Compound": "CN1C(=O)[C@@H](NC(=O)c2nnc(Cc3ccccc3)[nH]2)COc2ccccc21", "system": "human male, plasma", "conditions": "oral, 60 mg twice daily, day 1", "Tmax": "2 h"}
{"Compound": "CNC(=O)c1ccccc1Sc1ccc2c(/C=C/c3ccccn3)n[nH]c2c1", "system": "human, fed, plasma", "conditions": "oral, 7 mg single dose, median", "Tmax": "4 h"}
{"Compound": "CC(C)c1nc(CN(C)C(=O)N[C@H](C(=O)N[C@@H](Cc2ccccc2)C[C@H](O)[C@H](Cc2ccccc2)NC(=O)OCc2cncs2)C(C)C)cs1", "system": "human, HIV+/HCV+, plasma", "conditions": "oral, total drug, steady state, median, added: lopinavir/ritonavir twice daily", "Tmax": "4 h"}
{"Compound": "COc1ccc2nc([S@@+]([O-])Cc3ncc(C)c(OC)c3C)[nH]c2c1", "assay": "HPLC", "system": "human CYP2C19 rapid metabolizers, plasma", "conditions": "oral, 40 mg/day, day 1, pantoprazole", "Tmax": "2.25 ± 2.06 h"}
{"Compound": "CC(C)[C@H](N)C(=O)NCCCS(=O)(=O)O", "system": "healthy human, both sexes, plasma", "conditions": "oral, 300 mg capsule, median", "Tmax": "0.75 h"}
{"Compound": "Cc1ccc(NC(=O)c2ccc(CN3CCN(C)CC3)cc2)cc1Nc1nccc(-c2cncc(-c3oncc3C)c2)n1", "system": "older healthy human adults, plasma", "conditions": "oral, 175 mg single dose, fed, mean", "Tmax": "5.67 h"}
{"Compound": "CCn1c(C(=O)c2cc(C)cc(C#N)c2)c(C(C)C)c(=O)[nH]c1=O", "system": "healthy humans, plasma", "conditions": "oral, 150 mg once daily, 7 days, median", "Tmax": "1.3 h"}
{"Compound": "O=C(c1ccc(F)c(F)c1Nc1ccc(I)cc1F)N1CC(O)([C@@H]2CCCCN2)C1", "system": "human, plasma", "conditions": "oral, 100 mg, steady state", "Tmax": "3 h"}
{"Compound": "COCCCCn1c(C(=O)N(CC(C)C)[C@@H]2CNC[C@H](C(=O)N3CCOCC3)C2)nc2ccccc21", "system": "human, elderly, plasma", "conditions": "oral, 80 mg once daily, day 1, median", "Tmax": "1.5 h"}
{"Compound": "CO[C@H]1C[C@@H]2CC[C@@H](C)[C@@](O)(O2)C(=O)C(=O)N2CCCC[C@H]2C(=O)O[C@H]([C@H](C)C[C@@H]2CC[C@@H](OCCO)[C@H](OC)C2)CC(=O)[C@H](C)/C=C(\\C)[C@@H](O)[C@@H](OC)C(=O)[C@H](C)C[C@H](C)/C=C/C=C/C=C/1C", "system": "healthy adult human, whole blood", "conditions": "0.75 mg single dose, median, added: ritonavir-containing 3D regimen", "Tmax": "3 h"}
{"Compound": "CC(=O)c1c(C)c2cnc(Nc3ccc(N4CCNCC4)cn3)nc2n(C2CCCC2)c1=O", "system": "human", "conditions": "oral, 95 mg/m^2 single dose, day 1", "Tmax": "5 ± 2 h"}
{"Compound": "O=C(NC[C@H](O)CO)c1ccncc1Nc1ccc(I)cc1F", "system": "human", "conditions": "oral, 60 mg, single dose with FOLFIRI", "Tmax": "0.79 h"}
{"Compound": "CS(=O)(=O)n1cc2c(n1)CN([C@H]1CO[C@H](c3cc(F)ccc3F)[C@@H](N)C1)C2", "system": "healthy male human, plasma", "conditions": "oral, 100 mg once weekly, day 1, fasted, median", "Tmax": "2.5 h"}
{"Compound": "O=c1[nH]c(=O)c(Cc2cccc(C(F)(F)F)c2)c([C@H]2CC[C@H](c3ccccc3)CC2)[nH]1", "system": "human, plasma", "conditions": "oral, 900 mg, single dose SDD suspension, fed, median", "Tmax": "2 h"}
{"Compound": "C[C@@H](Nc1cc(F)cc(F)c1)c1cc(C(=O)N(C)C)cc2c(=O)cc(N3CCOCC3)oc12", "system": "human, plasma", "conditions": "oral, multiple dosing, median", "Tmax": "1.5 to 3 h"}
{"Compound": "COc1ccnc(C[S+]([O-])c2nc3ccc(OC(F)F)cc3[nH]2)c1OC (stereo not drawn)", "assay": "HPLC", "system": "human CYP2C19 rapid metabolizers, plasma", "conditions": "oral, 40 mg/day, day 1, esomeprazole", "Tmax": "2 h"}
{"Compound": "Nc1ccn([C@@H]2O[C@H](CO)[C@@H](O)C2(F)F)c(=O)n1", "assay": "LC-MS/MS", "system": "human, plasma", "conditions": "intravenous, 750 mg/m2, cycle 1 day 15, median, added: lonafarnib 150 mg twice daily", "Tmax": "0.5 h"}
{"Compound": "CC(=O)N[C@H]1CC[C@H](NC(=O)CN2CCN(c3nncc(-c4ccc(C)cc4)n3)CC2)CC1", "system": "human, plasma", "conditions": "oral, 120 mg once daily, day 7, fed, median", "Tmax": "1.5 h"}
{"Compound": "NS(=O)(=O)c1cc(Cl)c(Cl)c(S(N)(=O)=O)c1", "system": "healthy human volunteers, plasma", "conditions": "oral", "Tmax": "≤ 3 h"}
{"Compound": "CCCCCCCOc1ccc(CCC(N)(CO)CO)cc1C(F)(F)F.Cl", "system": "healthy human males, plasma", "conditions": "oral, 0.125 to 0.75 mg, day 1, median across doses", "Tmax": "12 to 16 h"}
{"Compound": "CC(C)NC[C@@H](C(=O)N1CCN(c2ncnc3c2[C@H](C)C[C@H]3O)CC1)c1ccc(Cl)cc1", "system": "human, Moderate hepatic function, plasma", "conditions": "oral, 100 mg single dose, NCI classification, median", "Tmax": "1 h"}
{"Compound": "CCOc1ccc(Cc2cc([C@@H]3S[C@H](CO)[C@@H](O)[C@H](O)[C@H]3O)c(OC)cc2C)cc1", "system": "human, plasma", "conditions": "oral, 5 mg/day, day 1, multiple dose before breakfast", "Tmax": "0.625 ± 0.354 h"}
{"Compound": "COc1cc(N2CCC(N3CCN(C)CC3)CC2)ccc1Nc1ncc(Cl)c(Nc2ccccc2P(C)(C)=O)n1", "system": "healthy humans, plasma", "conditions": "oral, 90 mg, median, added: itraconazole 200 mg twice daily", "Tmax": "2.6 h"}
{"Compound": "CCOC(=O)C1=C[C@@H](OC(CC)CC)[C@H](NC(C)=O)[C@@H](N)C1", "system": "healthy Indian human, plasma", "conditions": "oral, 75 mg single, Tamiflu reference capsule fed", "Tmax": "2.65 ± 1.34 h"}
{"Compound": "Cn1ncc(Cl)c1-c1cc(C(=O)N[C@H](CN)Cc2ccc(F)c(F)c2)oc1Cl", "system": "human patients, plasma", "conditions": "oral, 10 mg, single dose, fasting", "Tmax": "3 to 4 h"}
{"Compound": "CNC(=O)c1cc(Oc2ccc(NC(=O)Nc3ccc(Cl)c(C(F)(F)F)c3)cc2)ccn1", "system": "human patients, plasma", "conditions": "oral, dose not given, day 1, steady state, added: tanespimycin", "Tmax": "8.5 h"}
{"Compound": "Cc1cccc(Cn2nc(C3CC3)c3c(NC(=O)c4cnc5cc(OCCN6CCN(C)CC6)ccn45)cccc32)n1", "system": "human patients PDA, plasma", "conditions": "oral, 300 mg, cycle 1 day 1, median", "Tmax": "2 h"}
{"Compound": "C#C[C@]1(CO)O[C@@H](n2cnc3c(N)nc(F)nc32)C[C@@H]1O", "system": "human, plasma", "conditions": "oral, 10 mg once weekly, week 1", "Tmax": "1 h"}
{"Compound": "O=C(O)[C@H](c1ccccc1Cl)N1CCc2sccc2C1", "system": "human patients, CYP3A4 wt/wt, plasma", "conditions": "oral, 75 mg clopidogrel daily, day 7, median", "Tmax": "1 h"}
{"Compound": "CCOc1ccc(Cc2cc([C@]34OC[C@](CO)(O3)[C@@H](O)[C@H](O)[C@H]4O)ccc2Cl)cc1", "system": "human, plasma", "conditions": "oral, 15 mg, added: sitagliptin 100 mg", "Tmax": "1 h"}
{"Compound": "COc1cccc(-c2ccc(NC(=O)C3=C(C(=O)O)CCC3)c(F)c2)c1", "system": "healthy male humans, plasma", "conditions": "oral, 40 mg once daily, day 13, median", "Tmax": "3 h"}
{"Compound": "COc1cc2ncnc(Nc3ccc(F)c(Cl)c3)c2cc1OCCCN1CCOCC1", "system": "human, plasma", "conditions": "oral, 250 mg, median", "Tmax": "4 h"}
{"Compound": "CCS(=O)(=O)N1CC(CC#N)(n2cc(-c3ncnc4[nH]ccc34)cn2)C1", "system": "healthy Chinese human, plasma", "conditions": "oral, single dose, 2 to 10 mg", "Tmax": "0.75 to 1 h"}
{"Compound": "O=C(Cc1cccc(OC(F)(F)F)c1)Nc1ccc(CCCCc2nnc(NC(=O)Cc3ccccn3)s2)nn1", "system": "human patients, plasma", "conditions": "oral, 800 mg three times daily fasted, cycle 1 day 15 steady state", "Tmax": "2.02 h"}
